# Measured values collected from several papers.
# Each numbered part is a random draw from the data of one study; scales do not carry over between parts.

# Block 1 — technique: competition protein-binding microarray; molecule type: double-stranded DNA, one strand shown; medium: in vitro; tested at: 2 µM; added: Cbf1 competitor, 0.05 µM; direction: higher = stronger binding
# Target: Phosphate system positive regulatory protein PHO4, full length, GST-tagged (PHO4, Saccharomyces cerevisiae, UniProt P07270, residues 1-312)
# Notes: whole 60-bp probe, lowest competitor level
# Residues (chain): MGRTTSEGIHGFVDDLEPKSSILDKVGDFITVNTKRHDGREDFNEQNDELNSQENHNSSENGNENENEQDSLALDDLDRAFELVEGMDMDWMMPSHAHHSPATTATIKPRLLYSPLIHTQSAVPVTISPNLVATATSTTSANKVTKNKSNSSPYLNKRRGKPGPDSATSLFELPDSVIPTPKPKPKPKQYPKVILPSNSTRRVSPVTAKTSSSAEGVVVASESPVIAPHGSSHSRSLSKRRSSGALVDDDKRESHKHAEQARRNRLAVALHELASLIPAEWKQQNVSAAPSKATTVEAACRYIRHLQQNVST
Strand,fluorescence intensity [a.u.]
CTTCTGTAAATTTGTCACTAAACTTGACGCGCCCCGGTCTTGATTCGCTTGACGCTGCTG,3480
AAATTACTAAGTTTTCACGTGCTGTACCCCGTATGAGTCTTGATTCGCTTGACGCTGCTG,15800
CGGGGTTAAGTTTTTCACGTGGCATGCTTGCAGCAGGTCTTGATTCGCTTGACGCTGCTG,12200
TGTTCACCCTCCTCTCACGTGTATCTGACTCGTATTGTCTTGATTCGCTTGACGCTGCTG,14800
CTTTCCCGATCTTGTCACATTACTTTAGCACATTTGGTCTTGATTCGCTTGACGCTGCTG,4620
CTTTCCCGATCTTGAATAGTGGGTGTAGCACATTTGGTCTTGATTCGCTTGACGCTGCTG,4110
TGAGTTGATAGATCGCACGCTCTCGCCGATATAAGCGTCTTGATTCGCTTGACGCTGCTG,8380
GCCTCCTTAGATTGCCCCGTGCCAGCAATGGTCATTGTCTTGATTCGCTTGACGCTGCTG,9470
AGACTTACCAGAATCGACATGACAGATAACGACAAGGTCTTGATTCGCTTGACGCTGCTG,3800
CATACCCAACCTTGTCACAGAACTTAAGATATTTGTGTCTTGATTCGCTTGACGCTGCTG,3520
AGGGCGGGAATTTCACATGTGGCTTTTTGCATAATCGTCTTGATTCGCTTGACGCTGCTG,8060
TAGGGCTACCTTTGTCATGCCCAGGAAAACCGGATTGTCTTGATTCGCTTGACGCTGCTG,3070
TTTTTCGATTTTGTTTTTGTGTCGCAAAATAACTAAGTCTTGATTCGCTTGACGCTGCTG,2920
ATACTCGCTCGCGGCCACGGGTCAACCCGATTGGGAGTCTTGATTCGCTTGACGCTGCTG,8280
AAAGCGGTAATTTGTTTAGTGGGTGCAGATATCTATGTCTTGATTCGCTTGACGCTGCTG,3630
GTCTTGTCTCATTGGTTAGTGGGTGTCCCCACTTCAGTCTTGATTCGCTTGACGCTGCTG,5670
CATACCCAACCTTTTCACGTGCAGTAAGATATTTGTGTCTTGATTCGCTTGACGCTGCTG,17100
GTAGTTATGGAAGTGCCCGTGGACCATGCCTTCTTTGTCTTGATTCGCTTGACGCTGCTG,6840

# Block 2 — technique: RNA Bind-n-Seq; molecule type: RNA; medium: in vitro; tested at: not given; reference: input RNA pool; direction: higher = stronger binding
# Target: RING finger protein unkempt homolog, zinc fingers 1-6, GST-SBP tag (UNK, Homo sapiens, UniProt Q9C0B0, residues 30-357)
# Chain of UniProt Q9C0B0 (30-357, looked up): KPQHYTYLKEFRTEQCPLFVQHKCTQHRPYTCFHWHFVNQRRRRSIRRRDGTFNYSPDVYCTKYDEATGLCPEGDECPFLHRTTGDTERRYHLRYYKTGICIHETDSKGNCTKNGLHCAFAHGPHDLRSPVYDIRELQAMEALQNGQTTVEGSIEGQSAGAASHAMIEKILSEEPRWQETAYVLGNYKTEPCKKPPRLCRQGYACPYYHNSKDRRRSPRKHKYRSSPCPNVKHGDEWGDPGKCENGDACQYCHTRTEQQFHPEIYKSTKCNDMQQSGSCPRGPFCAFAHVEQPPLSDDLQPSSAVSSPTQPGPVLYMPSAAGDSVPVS
# Notes: RNA with constant flanks, human and mouse sites, ends assumed
Strand,bound/input enrichment [ratio]
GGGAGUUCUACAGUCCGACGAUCCAGGCAACUGAAAUGCUAUACAUGCGUUUGGACACAAUGAACACUACCUGUGUAGACAGGUUUAUUAAUUGGUUUUCUCAUCAUCUAAGUAACUUCCAGUUCCGUUGGAGCUGGGAAGAUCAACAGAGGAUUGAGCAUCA,0.327
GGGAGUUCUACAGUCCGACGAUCGAGCCUUCUGAGGACAUUCCAAGACAGUAUACAGUCCUGUGGUCUCCUUGGAAAUCCGUCUAGUUAACAUUUCAAGGGCAAUACCGUGUUGGUUUUGACUGGAUAUUCAUAUAAACUUUUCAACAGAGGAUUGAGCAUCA,1.21
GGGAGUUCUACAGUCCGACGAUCUGUCUGGACCGGCACUGGGUUCUGCAGGGUUGAAGACGGGCAACAGAUGCCAGAAGCUCCCUUAGACUGUCACCUGAGUCUGGAGACCGGCUCGCAGCCCCACAGCAUCACACUGCAAGUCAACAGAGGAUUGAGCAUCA,0.315
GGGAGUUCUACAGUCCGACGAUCUAGCAAGUUGUCUACUGUUUGAUCAUAAUCCUUGGCGAAAUUGCAUUUUGACCAAAGUUGAAGGACUGUUUCUACUUGUGGACCAAUCCUGUCCUGUUUUCUAGUAACGUAUAGGACAAUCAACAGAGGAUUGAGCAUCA,0.151
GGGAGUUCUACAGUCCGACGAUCCGCUGCCGCGUGGGUCAGUGGGUACGCAUGGAGAACGUGACAGUGCUGGGUGAGGACGUCAUAGUUAAUGAUGAGCUCUACCUCAACGGAGCCAGCGUGCUGCCCCACAAGUCUAUUGGCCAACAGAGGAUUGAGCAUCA,0.588
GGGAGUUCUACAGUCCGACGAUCGGGACUCAGGGCUGGACCGACGUCCUAGUGGACCUGAUGUGAAAUUCCUGUCAAACAAACACCACUUUUCAAUGGUUUGCUAGGAGUAUUUCUGUAUUGAAAGUUUCUAAUUAUGCUUUUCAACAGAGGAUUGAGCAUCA,0.654
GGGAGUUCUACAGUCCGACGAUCGCCGGCCUCCCCUGUUCCUUGUGUGAGUGAUGUCGUGAAUACACCGUUGUCCAUAAACAUUCCACAGUUCUAUUUCCCUGAAGGACUCCCAGACACCUGCAGUAACCAUGAACAGAUCCUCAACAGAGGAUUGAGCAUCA,0.71
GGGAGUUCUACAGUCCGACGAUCGCAGAGAAUGACCCAUUUUCAACUGACACCCUGAGCUCACACCCUCUCAGUGAGGCAAGAAGUGAUUUCUGUCCCUCAUCUAGUGAUCCUGACUCAGCUGGCCAGGACCCCAACAUCAAUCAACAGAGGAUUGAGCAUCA,0.192

# Block 3 — technique: RNA Bind-n-Seq; molecule type: RNA; medium: in vitro; tested at: 365 nM; reference: no-protein control; direction: higher = stronger binding
# Target: RNA binding protein fox-1 homolog 2, RRM domain, GST-SBP tag (RBFOX2, Homo sapiens, UniProt O43251-10, residues 100-194)
# Notes: natural RNA segment, single round, ends assumed
# Construct (chain): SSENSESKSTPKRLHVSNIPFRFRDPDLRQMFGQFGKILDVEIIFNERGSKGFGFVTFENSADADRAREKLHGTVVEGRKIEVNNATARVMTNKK
Strand,RBNS enrichment (R)
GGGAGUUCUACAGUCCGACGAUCAUUUUAGUCUUCAUAGCUAUUGGCUAAGAGAGAUAAUGAGCUGAUGGUCUAUUUUAACCUUGAAAGUAAAAAUGUAUAUUUUUUCACUACAAGUACAUUGAACAGUAAAAUGGAAUUCUCGGGUGCCAA,0.307
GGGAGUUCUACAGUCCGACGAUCAUAUUUAUGGGGGGAGAACUUACAUUGUGAAACUUCUGUACAUUAAUUAUUAUUGCUGUUGUUAUUUUACAAGGGUCUAGGGAGAGACCCUUGUUUGAUUUUAGCUGCAGUGGAAUUCUCGGGUGCCAA,0.908
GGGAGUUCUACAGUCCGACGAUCACAACGAGAACAGAGAUGUUCUGGCAUCAUUUACGUAGUUUACGCUACCAAUCUGAAUUCGAGGCCCAUAUGAGAGGAGCUUAGAAACGACCAAGAAGAGAGGCUUGUUGUGGAAUUCUCGGGUGCCAA,0.444
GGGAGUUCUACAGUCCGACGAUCUGCCGAGGUCCAGGAGGCCUUGCCUGCUCUUCAUCUGCCUGCGAGCUGUAGGACCUGCAUGGGAAAUGGUCUGUGUGUUUCAGGUUAACAAAUACUGAAAAUCCCAAGGAUGGAAUUCUCGGGUGCCAA,9.13
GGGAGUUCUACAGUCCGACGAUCAUAUGAGAAUAUCUAUCUGGCAUUAUCUAUCUGCCAAUCUCACUGUAAUAAAUUGAUUAUUUUGCCUAAACUGGUUCAUAUCUUUUUCUUUGUUUUGGUCACUUUUUAAUUGGAAUUCUCGGGUGCCAA,0.648
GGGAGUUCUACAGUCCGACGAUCAGCAAGUUCCAAGCGCACUUUUGCAUUUGCCGAGCAGACUUUUGCAGAGCCGGUGGCAGAAGCAGUGGCCUGGCCCGGCUCUGGAGCCCAGCUUGUCUGGGCCCUGCCCAUGGAAUUCUCGGGUGCCAA,3.13
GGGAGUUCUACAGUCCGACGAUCACCGUUCUUAUCACGAGAAAGCACUUUGUUUCCAGGGUGACGAGUCCCGCGGAGCAUGCACACCUUGUUUCCCUGUGACAUUCAUGUUCUCAUUUACAACUCUGAUUUUCUGGAAUUCUCGGGUGCCAA,5.13
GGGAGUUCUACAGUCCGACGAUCACAAAGAGCCUCCUUUCCCCACCUUACUCACACUGAUUCCCACCUAACAAUCAGCAGAUGGGAGUGUGGGUUCCUUAUGUCACAGGCUGUGCCCCAGCGGUCACUCACAAUGGAAUUCUCGGGUGCCAA,0.359
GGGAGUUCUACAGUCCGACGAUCGCUCUGCGUGUCACCUGUGCUUCGGGCCCUUCCCACAGGACAUUUCUCUAAGAGAACAAUGUGCUAUGUGAAGAGUAAGUCAACCUGCCUGACAUUUGGAGUGUUCCCCUUGGAAUUCUCGGGUGCCAA,0.137

# Block 4 — technique: aptamer microarray, sandwich; molecule type: DNA with 2'F-ANA; medium: in vitro; tested at: 200 nM; added: Cy3 exosite-II aptamer, 400 nM; direction: higher = stronger binding; strand: GGTTGGTGTGGTTGG
# Target: Prothrombin, mature alpha-thrombin (F2, Homo sapiens, UniProt P00734)
# Notes: whole 15-mer aptamer, many near background
Modification,mean fluorescence intensity [a.u.]
2'F-ANA at 1 2 3 4 5 6 7,60.8
2'F-ANA at 1 3 8 9 10,83.6
2'F-ANA at 1 4 5 7 9 11 12,118
2'F-ANA at 1 2 3 10 11 12,88.3
2'F-ANA at 2 3 4 9 11 15,531
2'F-ANA at 1 2 3 4 7 10 12 13 14,49.2
2'F-ANA at 1 4 6 8 11 14 15,52.1
2'F-ANA at 2 3 6 9 10 12 13 14 15,234
2'F-ANA at 2 3 4 5 8 9 11 12 13 14 15,57.2
2'F-ANA at 1 2 3 6 8 12 15,427
2'F-ANA at 3 4 7 10 11 13 15,270
2'F-ANA at 2 3 7 8 13 14 15,465
2'F-ANA at 1 2 5 8 9 10 11 14 15,49.3
2'F-ANA at 1 4 5 7 8 10 12,45.6
2'F-ANA at 3 5 7 8 10 12 13 15,64.2
2'F-ANA at 2 4 5 6 7 8 9 11 12 15,99.9
2'F-ANA at 3 4 5 6 13 15,103
2'F-ANA at 1 3 9 13 14 15,78.5
2'F-ANA at 1 2 3 8 10 12,119
2'F-ANA at 3 5 7 8 9 11 12 13 15,175
2'F-ANA at 3 6 7 9 10 14 15,423
2'F-ANA at 7 8 9 11 14 15,206
2'F-ANA at 2 3 4 7 8 9 10 12 14 15,194
2'F-ANA at 3 4 7 8 10 11 13 15,269
2'F-ANA at 3 9 10 11 12 13 14,378

# A few entries again (block 1):
Strand,fluorescence intensity [a.u.]
AGACTTACCAGAATCGACATGACAGATAACGACAAGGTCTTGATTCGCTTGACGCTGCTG,3800
CTTTCCCGATCTTGAATAGTGGGTGTAGCACATTTGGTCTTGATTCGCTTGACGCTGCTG,4110
TGAGTTGATAGATCGCACGCTCTCGCCGATATAAGCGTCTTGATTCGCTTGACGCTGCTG,8380
AAAGCGGTAATTTGTTTAGTGGGTGCAGATATCTATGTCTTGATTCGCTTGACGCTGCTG,3630
